# Experimental data gathered from unrelated publications.
# Lines come from different studies, so protocols differ. Numbers after ± are the reported error.
SMILES,cell line,assay,setting,EC50 [µM]
COC[C@H](NC(=O)[C@H](CCc1ccccc1)NC(=O)c1cnc(C)s1)C(=O)N[C@H](/C=C/S(C)(=O)=O)Cc1cccs1,"HFF, non-confluent","cell viability, CellTiter-Blue",1 h,> 250
O=[N+]([O-])C(=C\Nc1ccccc1O)/C=N/c1ccccc1O,LDR,"silenced GFP reporter derepression, microscopy",overnight,18
CCCCCCCCC1(CCCCCCCC)c2cc(-c3cc4[n+]5c(c3)-c3cccc[n+]3[Ir-3]536([c]5ccccc5-c5cc(-c7ccccc7)cc([n+]53)-c3cccc[c]36)[n+]3ccccc3-4)ccc2-c2ccc(-c3cc4[n+]5c(c3)-c3cccc[n+]3[Ir-3]536([c]5ccccc5-c5cc(-c7ccccc7)cc([n+]53)-c3cccc[c]36)[n+]3ccccc3-4)cc21.F[P-](F)(F)(F)(F)F.F[P-](F)(F)(F)(F)F,SK-MEL-28,"cell viability, resazurin","16 h before light, red light 100 J/cm2",85.1 ± 1
FC(F)(F)c1ccnc(-c2cc(C(F)(F)F)ccn2)c1.FC(F)(F)c1ccnc(-c2cc(C(F)(F)F)ccn2)c1.[Cl-].[Cl-].[Ru+2].c1csc(-c2nc3c4cccnc4c4ncccc4c3[nH]2)c1,SK-MEL-28,cell viability,"100 J/cm2 light, normoxia, together with: visible light 400-700 nm",22
COc1cccc(/C=N/Nc2nc(Nc3ccccc3)nc(-n3nc(C)cc3C)n2)c1O,LDR,"silenced GFP reporter derepression, microscopy",overnight,4
C=CC(=O)Nc1cc(-c2nn(C3CCN(CCNC(=O)[C@H](C)CCC45CC6CC(CC(C6)C4)C5)CC3)c3ncnc(N)c23)ccc1Oc1ccccc1,PC-9/GR4 with HER3 C721S,"cell proliferation, CellTiter-Glo",72 h,5.5
Oc1c(/N=N/c2ccccn2)ccc2ccccc12,LDR,"silenced GFP reporter derepression, microscopy",overnight,32
NC(COc1ccccc1C(F)(F)F)c1ccccc1 (centres unmarked),normal hiPSC cardiomyocytes,"APD75 prolongation, kinetic imaging cytometry",,> 200
C(=C/c1ccccc1)/c1ccccc1,Jurkat,"caspase-3 activity, flow cytometry",24 h,31
C#CC[C@@H](/C=C/S(C)(=O)=O)NC(=O)[C@H](COC)NC(=O)[C@H](CCc1ccccc1)NC(=O)CN1CCOCC1,"HFF, non-confluent","cell viability, CellTiter-Blue",72 h,8.54 ± 2
CCCCCCCCC1(CCCCCCCC)c2cc(-c3cc4[n+]5c(c3)-c3cccc[n+]3[Ir-3]536([n+]5ccccc5-c5cc(-c7ccccc7)cc([n+]53)-c3cccc[n+]36)[n+]3ccccc3-4)ccc2-c2ccc(-c3cc4[n+]5c(c3)-c3cccc[n+]3[Ir-3]536([n+]5ccccc5-c5cc(-c7ccccc7)cc([n+]53)-c3cccc[n+]36)[n+]3ccccc3-4)cc21.F[P-](F)(F)(F)(F)F.F[P-](F)(F)(F)(F)F.F[P-](F)(F)(F)(F)F.F[P-](F)(F)(F)(F)F.F[P-](F)(F)(F)(F)F.F[P-](F)(F)(F)(F)F,SK-MEL-28,"cell viability, resazurin","16 h before light, visible light 100 J/cm2",0.75 ± 0.01
Cc1ccc(C(C)C)c(OCc2ccc(C(=O)N/N=C/c3cccc(O)c3O)cc2)c1,LDR,"silenced GFP reporter derepression, microscopy",overnight,4
COC[C@H](NC(=O)[C@H](CCc1ccccc1)NC(=O)CN1CCOCC1)C(=O)N[C@H](/C=C/S(C)(=O)=O)Cc1cccs1,"HFF, non-confluent","cell viability, CellTiter-Blue",72 h,9.8 ± 2.96
CCc1nnc(NC(=O)c2cccc(C(=O)Nc3nnc(CC)s3)n2)s1,LDR,"silenced GFP reporter derepression, microscopy",overnight,8
CC1=C(C2=C(C)C(=O)c3c(cc(O)c(O)c3C(C)C)C2=O)C(=O)c2cc(O)c(O)c(C(C)C)c2C1=O (racemic),BP3 human lymphoma,"apoptosis, annexin V-PI staining",24 h,13.4 ± 1.2
CCCCCCCCC1(CCCCCCCC)c2cc(C#Cc3cc4[n+]5c(c3)-c3cccc[n+]3[Ir-3]536([n+]5ccccc5-4)[n+]4ccccc4-c4cc(-c5ccccc5)cc([n+]43)-c3cccc[n+]36)ccc2-c2ccc(C#Cc3cc4[n+]5c(c3)-c3cccc[n+]3[Ir-3]536([n+]5ccccc5-4)[n+]4ccccc4-c4cc(-c5ccccc5)cc([n+]43)-c3cccc[n+]36)cc21.F[P-](F)(F)(F)(F)F.F[P-](F)(F)(F)(F)F.F[P-](F)(F)(F)(F)F.F[P-](F)(F)(F)(F)F.F[P-](F)(F)(F)(F)F.F[P-](F)(F)(F)(F)F,SK-MEL-28,"cell viability, resazurin","16 h before light, red light 100 J/cm2",16.2 ± 0.5
CC(C)C[C@@H](/C=C/S(C)(=O)=O)NC(=O)[C@H](CC(C)C)NC(=O)[C@H](CCc1ccccc1)NC(=O)CN1CCOCC1,"HFF, non-confluent","cell viability, CellTiter-Blue",72 h,1.88 ± 0.46
Cc1ccc(CC(=O)c2c(O)c(O)cc3c(O)c(-c4c(C)cc5c(C(=O)Cc6ccc(C)cc6)c(O)c(O)cc5c4O)c(C)cc23)cc1,H1299,"cell viability, ATP luminescence",72 h,1.7
N=C(S)N/N=C/c1ncc(C(F)(F)F)cc1Cl,LDR,"silenced GFP reporter derepression, microscopy",overnight,8
COC[C@H](NC(=O)[C@H](CCc1ccccc1)NC(=O)CN1CCOCC1)C(=O)N[C@H](/C=C/S(C)(=O)=O)CC(C)C,"HFF, non-confluent","cell viability, CellTiter-Blue",1 h,> 250
COc1ccc2c(C)nc(Nc3nc(O)cc(-c4ccccc4)n3)nc2c1,LDR,"silenced GFP reporter derepression, microscopy",overnight,6
CC(C)C[C@@H](/C=C/S(C)(=O)=O)NC(=O)[C@H](CC(C)C)NC(=O)[C@H](Cc1cccc2ccccc12)NC(=O)CN1CCOCC1,"HFF, non-confluent","cell viability, CellTiter-Blue",72 h,1.8 ± 0.39
Cc1ccc2oc(=O)c(-c3nc4cnccc4[nH]3)cc2c1,endometrial stem cells,cell proliferation,72 h,100
CC[C@@H](/C=C/S(C)(=O)=O)NC(=O)[C@H](COC)NC(=O)[C@H](CCc1ccccc1)NC(=O)CN1CCOCC1,"HFF, non-confluent","cell viability, CellTiter-Blue",1 h,> 250
O=C(NN1C(=O)c2ccccc2NC1c1ccc([N+](=O)[O-])o1)c1ccc([N+](=O)[O-])cc1 (centres unmarked),LDR,"silenced GFP reporter derepression, microscopy",overnight,32
Cc1cc(C)nc(NC(=S)N2CCN(Cc3ccc(C(F)(F)F)cc3)CC2)c1,MT-3,"cytotoxicity, CellTiter-Glo",4 days,9
